# Experimental data pooled from the literature.
# Target: Cytochrome P450 2C9 (CYP2C9, Homo sapiens, UniProt P11712)
SMILES,assay,test system,conditions,measurement,result
CCc1nnc(NS(=O)(=O)c2ccc(NC(=O)c3cccc4ccccc34)cc2)s1,,,10 µM,inhibition,78%
N#Cc1cccc2c1C1(CCN(C(=O)c3cnc4[nH]ncc4c3)CC1)C(=O)N2CC(=O)NCC(F)(F)F,"enzyme activity, inhibitor",,,IC50,> 8 µM
Cc1cc(-c2ccc3ccccc3c2)nnc1NCCN1CCN(C)CC1,substrate,recombinant enzyme,"100 nM, 0.5 h",remaining compound,89%
C[C@H](NCc1ccc(-c2ccc(C(F)(F)F)cc2)cc1)C(N)=O,P450-Glo luminescence,potassium phosphate buffer,"10 µM, pH 7.4, isoform 2C9",inhibition,99.1%
CN[C@@H]1[C@H](O)[C@H](NC)[C@H]2O[C@]3(O)[C@H](O[C@@H]2[C@H]1O)O[C@H](C)C[C@H]3NC(=O)Cc1ccc(Cl)cn1,,,10 µM,inhibition,2%
O=C(CN1C(=O)C2(CCN(C(=O)c3cnc4[nH]ncc4c3)CC2)c2c(F)cccc21)NCC(F)(F)F,"enzyme activity, inhibitor",,,IC50,20 µM
C[C@@H](c1ccc2nccn2c1)n1nnc2ncc(-c3cn[nH]c3)nc21,"enzyme activity, inhibitor","human, liver microsomes",,IC50,13 µM
O=C(CN1C(=O)C2(CCN(C(=O)c3cnc4[nH]ncc4c3)CC2)c2c(Cl)cccc21)NCC(F)(F)F,"enzyme activity, inhibitor",,,IC50,12 µM
CCN(CC)CCOc1ccc(-c2nnn(Cc3ccc(OC)cc3)c2N)cc1,CYP phenotyping,,concentration not given,inhibition,-1.8%

# For quick reference, copied from above:
SMILES,assay,test system,conditions,measurement,result
Cc1cc(-c2ccc3ccccc3c2)nnc1NCCN1CCN(C)CC1,substrate,recombinant enzyme,"100 nM, 0.5 h",remaining compound,89%
